# Assay results of several laboratories.
# Lines come from different studies, so protocols differ. ± gives the spread as reported.
Substance,cell line,assay,system,conditions,how to read,endpoint,result
CN(CC(=O)O)C(=O)CN,MDCKII-MDR1,,,"60 min, pH 7.4",,Papp B-A,12.9 ± 1.3 ×10⁻⁶ cm/s
O=C1C(Cl)=C(N2C(=O)CCC2=O)C(=O)c2ccccc21,BALB/c 3T3 clone A31,"cytotoxicity, MTT",,48 h,,IC50,165.9 ± 1.24 µM
O=c1[nH]cnc2c1ncn2[C@H]1CC[C@@H](CO)O1,PHA-stimulated human PBM cells,"cell growth, trypan blue exclusion",,6 d,,IC50,> 100 µM
c1csc(CNc2cc[nH]n2)c1,human peripheral blood lymphocytes,refers to: mitotic index,,"4 h, with and without S9",,cytotoxic concentration,2160 µg/mL
Cc1ncsc1-c1ccc(CNC(=O)[C@@H]2C[C@H](O)CN2C(=O)[C@H](C(C)C)N2Cc3ccccc3C2=O)c(OCCNC(=O)c2ccccc2NC(=O)[C@H](CCCCN)NC(=O)[C@@H]2CCCN2C(=O)Cc2cccc3ccccc23)c1,HCT-116 spheroids,,PG-S peptide hydrogel,"up to 64 µM, 3 days",,viability,> 92%
Cc1ccc2oc(-c3ccc(O)c(O)c3)c(O)c(=O)c2c1,H4IIE,MTT,,"concentration not given, 24 h",baseline: with over without cyclosporin A,difference in toxicity,15.7%
CN(C)c1ccc(O)c2c1C[C@H]1C[C@H]3[C@H](N(C)C)C(O)=C(C(N)=O)C(=O)[C@@]3(O)C(O)=C1C2=O,CHO,"cytotoxicity, resazurin",,10% fetal calf serum,,TC50,> 100 µg/mL
COc1cccc(-c2ccnc3nc(Nc4ccc(S(N)(=O)=O)cc4)nn23)c1,human peripheral blood lymphocytes,"cell growth, resazurin",,"72 h, added: PHA stimulation",,GI50,6 ± 0.8 µM
CC(=O)Oc1ccc2cc(-c3ccc(S(C)(=O)=O)cc3)c(=O)oc2c1OC(C)=O,MRC9,"cell growth or viability, crystal violet",,48 h,,CC50,> 100 µM
COc1cc(-c2oc3cc(C)c(C)cc3c(=O)c2O)ccc1O,H4IIE,MTT,,"concentration not given, 24 h",baseline: with over without cyclosporin A,difference in toxicity,12.6%
C=C1[C@@H](O)C[C@H]2C(C)(C)C[C@H](Cl)C[C@]2(C)[C@H]1C[C@H](O)[C@H]1CC(=O)NC1=O,P388,cytotoxicity,,,,IC50,0.059 µM
CN(C)c1cc(NC(=O)CNC(C)(C)C)c(O)c2c1C[C@H]1C[C@H]3[C@H](N(C)C)C(O)=C(C(N)=O)C(=O)[C@@]3(O)C(O)=C1C2=O,CHO,"cytotoxicity, resazurin",,10% fetal calf serum,,TC50,> 100 µg/mL
COc1ccccc1-c1ccnc2nc(Nc3ccc(S(N)(=O)=O)cc3)nn12,human peripheral blood lymphocytes,"cell growth, resazurin",,"72 h, added: PHA stimulation",,GI50,> 10 µM
O=C1C(Cl)=C(N(C(=O)CCl)C(=O)CCl)C(=O)c2ccccc21,BALB/c 3T3 clone A31,"cytotoxicity, MTT",,48 h,,IC50,19.7 ± 3.71 µM
O=C(O)C1=CC(=C(c2ccc(O)c(C(=O)O)c2)c2ccc(O)c(C(=O)O)c2)C=CC1=O,HEK293 cells,cell viability,,72 h,,IC50,13.8 µM
NC(=O)[C@H](CCCN=C(N)CCl)NC(=O)c1ccccc1,U-87 MG,JC-1 flow cytometry,,"150.40 µM, 48 h",,viable cells,45.3 ± 11.5%
CC1(C)C(/C=C/C=C/C=C/C=C2\N(CCCCS(=O)(=O)O)c3ccc4ccccc4c3C2(C)C)=[N+](CCCCS(=O)(=O)[O-])c2ccc3ccccc3c21,U-87 MG,"cell viability, AlamarBlue",,"72 h in dark, 10% FBS, tested up to 80 µM",,highest non-cytotoxic concentration,≥ 80 µM
glutathione,PC-12,,,"1 mM, 72 h, 37 °C",baseline: vehicle,viability,101 ± 3.17%
Telavancin,rat embryo fibroblasts,,,"90 mg/L, 37 °C, 10% fetal calf serum",,uptake clearance,8.2 ± 0.4 µL/mg protein/h
NS(=O)(=O)c1ccc(Nc2nc3nccc(-c4ccccc4Cl)n3n2)cc1,human peripheral blood lymphocytes,"cell growth, resazurin",,"72 h, added: PHA stimulation",,GI50,> 10 µM
Cc1cc(O)c(C(=O)/C=C/c2ccc(O)c(O)c2)cc1C,H4IIE,MTT,,"concentration not given, 24 h",baseline: with over without cyclosporin A,difference in toxicity,14.1%
NC(C(=O)O)c1cc(O)cc(O)c1 (centres unmarked),rat cerebellar granule cells,PI hydrolysis,,"24 h, culture-conditioned medium",baseline: freshly prepared,EC50 and Emax,no effect
O=c1[nH]c(=O)n([C@H]2C[C@H](OP(=O)(O)OC[C@H]3O[C@H](O)[C@H](O)[C@@H](O)[C@@H]3O)[C@@H](CO)O2)cc1I,PHA-stimulated human PBM cells,"cell growth, trypan blue exclusion",,6 d,,IC50,> 100 µM
C1CNCCNCCNCCN1,HT-22,"cell growth or viability, MTT",,,,IC50,73.6 µM
Nc1ncnc2c1ncn2[C@H]1CC[C@@H](CO)O1,PHA-stimulated human PBM cells,"cell growth, trypan blue exclusion",,6 d,,IC50,> 100 µM
CN(C)c1cc(CNCC(C)(C)C)c(O)c2c1C[C@H]1C[C@H]3[C@H](N(C)C)C(O)=C(C(N)=O)C(=O)[C@@]3(O)C(O)=C1C2=O,COS,"cytotoxicity, resazurin",,10% fetal calf serum,,TC50,> 100 µg/mL

# For quick reference, copied from above:
Substance,cell line,assay,system,conditions,how to read,endpoint,result
O=c1[nH]c(=O)n([C@H]2C[C@H](OP(=O)(O)OC[C@H]3O[C@H](O)[C@H](O)[C@@H](O)[C@@H]3O)[C@@H](CO)O2)cc1I,PHA-stimulated human PBM cells,"cell growth, trypan blue exclusion",,6 d,,IC50,> 100 µM
C1CNCCNCCNCCN1,HT-22,"cell growth or viability, MTT",,,,IC50,73.6 µM
